Experimental data collected from several papers.
Every numbered part comes from another study and shows a few of its results, in no order.
UniProt Q9BWU1, sequence (whole entry, looked up): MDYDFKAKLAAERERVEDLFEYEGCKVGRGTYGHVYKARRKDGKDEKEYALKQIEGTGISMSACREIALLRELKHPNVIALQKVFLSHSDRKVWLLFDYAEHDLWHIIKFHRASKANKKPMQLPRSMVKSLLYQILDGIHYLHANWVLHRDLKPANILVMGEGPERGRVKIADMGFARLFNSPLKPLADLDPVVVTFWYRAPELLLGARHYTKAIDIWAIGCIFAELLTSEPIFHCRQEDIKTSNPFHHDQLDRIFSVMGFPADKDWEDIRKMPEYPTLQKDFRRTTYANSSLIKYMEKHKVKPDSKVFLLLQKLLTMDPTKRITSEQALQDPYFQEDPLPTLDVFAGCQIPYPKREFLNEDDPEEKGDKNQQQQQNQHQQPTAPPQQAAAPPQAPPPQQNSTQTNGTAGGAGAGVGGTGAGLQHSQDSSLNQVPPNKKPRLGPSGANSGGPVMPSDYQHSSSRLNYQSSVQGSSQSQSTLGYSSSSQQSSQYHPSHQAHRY
UniProt O96013, sequence (whole entry, looked up): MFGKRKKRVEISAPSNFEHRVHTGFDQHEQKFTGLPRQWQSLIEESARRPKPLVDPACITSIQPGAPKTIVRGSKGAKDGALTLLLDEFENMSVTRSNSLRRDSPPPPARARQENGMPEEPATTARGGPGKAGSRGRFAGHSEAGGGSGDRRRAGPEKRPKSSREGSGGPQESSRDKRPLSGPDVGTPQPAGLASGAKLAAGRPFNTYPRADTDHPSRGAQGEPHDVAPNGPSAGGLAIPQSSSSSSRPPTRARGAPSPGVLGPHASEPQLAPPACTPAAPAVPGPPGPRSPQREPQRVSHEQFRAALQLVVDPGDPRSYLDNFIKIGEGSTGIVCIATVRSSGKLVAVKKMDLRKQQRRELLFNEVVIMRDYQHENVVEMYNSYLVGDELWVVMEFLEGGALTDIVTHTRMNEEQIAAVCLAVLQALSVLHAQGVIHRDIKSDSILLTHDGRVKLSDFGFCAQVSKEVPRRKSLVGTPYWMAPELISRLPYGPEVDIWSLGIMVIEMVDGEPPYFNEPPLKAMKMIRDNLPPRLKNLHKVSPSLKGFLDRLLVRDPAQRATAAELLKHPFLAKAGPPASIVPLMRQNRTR
UniProt P10721, sequence (whole entry, unmodified, looked up): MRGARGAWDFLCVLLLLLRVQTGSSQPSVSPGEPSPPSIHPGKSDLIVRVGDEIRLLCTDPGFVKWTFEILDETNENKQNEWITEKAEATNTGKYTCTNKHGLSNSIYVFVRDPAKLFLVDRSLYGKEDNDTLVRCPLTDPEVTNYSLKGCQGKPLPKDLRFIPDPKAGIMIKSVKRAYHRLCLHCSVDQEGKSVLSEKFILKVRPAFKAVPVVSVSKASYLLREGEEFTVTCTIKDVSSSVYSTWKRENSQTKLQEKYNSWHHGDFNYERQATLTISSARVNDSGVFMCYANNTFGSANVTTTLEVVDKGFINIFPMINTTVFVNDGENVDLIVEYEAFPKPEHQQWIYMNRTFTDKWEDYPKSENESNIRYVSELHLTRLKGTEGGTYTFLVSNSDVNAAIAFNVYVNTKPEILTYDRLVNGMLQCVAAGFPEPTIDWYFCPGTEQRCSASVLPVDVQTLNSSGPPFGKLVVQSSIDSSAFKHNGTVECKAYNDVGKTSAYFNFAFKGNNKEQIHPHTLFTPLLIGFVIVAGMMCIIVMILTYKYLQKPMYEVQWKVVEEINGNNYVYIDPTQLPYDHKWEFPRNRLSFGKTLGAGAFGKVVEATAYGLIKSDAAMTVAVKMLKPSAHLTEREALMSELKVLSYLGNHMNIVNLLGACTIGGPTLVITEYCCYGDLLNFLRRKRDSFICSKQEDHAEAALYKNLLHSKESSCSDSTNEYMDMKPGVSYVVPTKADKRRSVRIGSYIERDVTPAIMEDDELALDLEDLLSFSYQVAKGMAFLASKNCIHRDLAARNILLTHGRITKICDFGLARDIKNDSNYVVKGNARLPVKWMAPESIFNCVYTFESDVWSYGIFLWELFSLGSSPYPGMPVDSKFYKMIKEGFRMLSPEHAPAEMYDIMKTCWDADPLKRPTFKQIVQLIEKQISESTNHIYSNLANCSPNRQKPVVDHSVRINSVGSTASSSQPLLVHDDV
UniProt Q13177, sequence (whole entry, looked up): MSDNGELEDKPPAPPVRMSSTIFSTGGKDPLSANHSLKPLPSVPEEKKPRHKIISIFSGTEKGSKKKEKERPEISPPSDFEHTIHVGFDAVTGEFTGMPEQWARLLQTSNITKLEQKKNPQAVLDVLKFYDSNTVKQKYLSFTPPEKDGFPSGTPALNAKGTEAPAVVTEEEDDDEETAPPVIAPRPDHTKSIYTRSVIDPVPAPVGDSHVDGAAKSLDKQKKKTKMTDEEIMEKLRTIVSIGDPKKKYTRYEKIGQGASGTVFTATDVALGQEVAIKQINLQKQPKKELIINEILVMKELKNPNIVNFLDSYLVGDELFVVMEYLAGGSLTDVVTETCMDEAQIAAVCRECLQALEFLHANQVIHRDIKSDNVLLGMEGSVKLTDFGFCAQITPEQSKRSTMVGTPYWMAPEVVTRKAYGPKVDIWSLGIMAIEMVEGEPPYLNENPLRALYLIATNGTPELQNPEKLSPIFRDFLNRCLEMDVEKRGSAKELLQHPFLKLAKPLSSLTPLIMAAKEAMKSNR
UniProt P54756, sequence (whole entry, looked up): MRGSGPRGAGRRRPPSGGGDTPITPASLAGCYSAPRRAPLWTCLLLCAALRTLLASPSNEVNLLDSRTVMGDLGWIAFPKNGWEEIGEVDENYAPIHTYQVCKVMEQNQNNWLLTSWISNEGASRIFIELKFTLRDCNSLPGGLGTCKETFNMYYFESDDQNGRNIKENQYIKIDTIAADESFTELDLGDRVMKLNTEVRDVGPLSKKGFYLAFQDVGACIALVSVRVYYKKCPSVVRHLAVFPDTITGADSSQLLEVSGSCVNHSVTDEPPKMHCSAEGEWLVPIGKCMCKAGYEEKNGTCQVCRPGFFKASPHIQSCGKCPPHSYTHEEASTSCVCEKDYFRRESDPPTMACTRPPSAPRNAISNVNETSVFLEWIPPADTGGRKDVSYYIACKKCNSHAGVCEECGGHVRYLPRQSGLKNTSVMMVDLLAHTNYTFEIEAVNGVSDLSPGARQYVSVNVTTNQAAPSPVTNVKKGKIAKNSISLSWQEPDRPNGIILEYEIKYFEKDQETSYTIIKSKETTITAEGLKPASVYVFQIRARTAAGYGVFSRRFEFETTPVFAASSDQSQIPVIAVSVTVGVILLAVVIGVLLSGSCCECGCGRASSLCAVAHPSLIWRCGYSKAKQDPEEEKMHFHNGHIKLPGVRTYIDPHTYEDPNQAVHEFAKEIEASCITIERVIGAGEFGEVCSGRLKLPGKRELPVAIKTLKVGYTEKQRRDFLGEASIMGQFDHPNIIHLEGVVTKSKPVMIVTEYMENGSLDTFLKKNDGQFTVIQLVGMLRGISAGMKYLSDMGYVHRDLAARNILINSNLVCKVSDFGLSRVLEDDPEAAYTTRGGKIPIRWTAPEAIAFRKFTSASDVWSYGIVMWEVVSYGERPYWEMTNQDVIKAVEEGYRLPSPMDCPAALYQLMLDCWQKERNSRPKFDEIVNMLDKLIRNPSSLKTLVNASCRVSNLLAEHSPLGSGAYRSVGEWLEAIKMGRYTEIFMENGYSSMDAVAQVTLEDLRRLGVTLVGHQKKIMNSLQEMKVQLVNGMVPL

Study 1
Cell line: A-375
Concentration: 100 µM
Time: 18 h
O=C(O)c1cc(O)c(O)c(O)c1 gave a viability of 15.4%.
Nc1ncnc2c1ncn2[C@@H]1O[C@H](COP(=O)(O)O)[C@@H](O)[C@H]1O has a viability of 98.1%.
COc1ccc(/C=C/C(=O)Nc2ccccc2C(=O)O)cc1OC gave a viability of 70.8%.
O=C(O)Cc1ccc(-c2ccccc2)cc1 has a viability of 98.5%.
NC(CO)C(=O)NNCc1ccc(O)c(O)c1O (stereo not drawn) has a viability of 50.8%.
For OC[C@@H](O)[C@@H](O)[C@H](O)[C@H](O)CO, the viability was 85.7%.
Cc1cnc(NC(=O)C2=C(O)c3ccccc3S(=O)(=O)N2C)s1 gave a viability of 79%.
With CCCc1nc(C(C)(C)O)c(C(=O)OCc2oc(=O)oc2C)n1Cc1ccc(-c2ccccc2-c2nnn[nH]2)cc1 the viability was 99%.

Study 2
Host: mouse
Medium: microsomes or S9
Concentration: 2 µM
Time: 0.5 h
The remaining compound of CC(C)c1noc(CCCn2ccc(-c3ccc(C#N)cc3)n2)n1 is reported as 0.521%.
With Nc1nn(Cc2ccc(F)cc2Cl)cc1Cl the remaining compound was 58.9%.
With O=C(Nc1cc2ccc(O)cc2s1)Nc1ccc(Br)cc1F the remaining compound was 36.2%.
c1ccc(Cn2ncc3/c(=N/c4cccc5ccccc45)nc[nH]c32)cc1 gave a remaining compound of 22.2%.
For Cc1cccc(C2=C(N)OC(c3ccc(Cl)cc3)C2=O)n1 (stereo not drawn), the remaining compound was 2.13%.
For Cn1nc(Br)nc1N1CCC(O)CC1, the remaining compound was 81.2%.
Fc1ccc(CNc2c(-c3ccccn3)nc3cnccn23)cc1 gave a remaining compound of 0.0512%.
With CC(C)COc1cc(=O)n2c(c1C(=O)NCC1CCCCC1)CCCCC2 the remaining compound was 0.281%.
The remaining compound of CC1CCc2c(sc3ncnc(NC(c4nnc5n4CCC5)C(C)C)c23)C1 (stereo not drawn) is reported as 3.95%.

Study 3
Structure (SMILES): CCCOc1ccc([C@@H]2[C@@H](C(=O)O)[C@H](c3ccc4c(c3)OCO4)CN2CC(=O)Nc2c(CC)cccc2CC)cc1
Concentration: 1 µM
The remaining binding was 100% (Serine/threonine-protein kinase PAK 2 (PAK2, Homo sapiens, UniProt Q13177); cell-free assay, competition with immobilised ligand).
Serine/threonine-protein kinase PRP4 homolog (PRPF4B, Homo sapiens, UniProt Q13523); cell-free assay, competition with immobilised ligand — remaining binding: 100%.
For Serine/threonine-protein kinase PAK 4 (PAK4, Homo sapiens, UniProt O96013); cell-free assay, competition with immobilised ligand: remaining binding read 91%.
It gave 66% for remaining binding (Mast/stem cell growth factor receptor Kit (KIT, Homo sapiens, UniProt P10721, A829P); cell-free assay, competition with immobilised ligand).
Ephrin type-A receptor 5 (EPHA5, Homo sapiens, UniProt P54756); cell-free assay, competition with immobilised ligand — remaining binding: 100%.
Ephrin type-A receptor 6 (EPHA6, Homo sapiens, UniProt Q9UF33); cell-free assay, competition with immobilised ligand — remaining binding: 98%.
It gave 87% for remaining binding (Cyclin-dependent kinase 2 (CDK2, Homo sapiens, UniProt P24941); cell-free assay, competition with immobilised ligand).
It gave 89% for remaining binding (Cyclin-dependent kinase 19 (CDK19, Homo sapiens, UniProt Q9BWU1); competition binding).
The remaining binding was 100% (Atypical kinase COQ8A, mitochondrial (COQ8A, Homo sapiens, UniProt Q8NI60); cell-free assay, competition with immobilised ligand).
For Receptor-type tyrosine-protein kinase FLT3 (FLT3, Homo sapiens, UniProt P36888, D835Y); cell-free assay, competition with immobilised ligand: remaining binding read 100%.

Study 4
Target: Focal adhesion kinase 1 (PTK2, Homo sapiens, UniProt Q05397)
UniProt Q05397, sequence (whole entry, looked up): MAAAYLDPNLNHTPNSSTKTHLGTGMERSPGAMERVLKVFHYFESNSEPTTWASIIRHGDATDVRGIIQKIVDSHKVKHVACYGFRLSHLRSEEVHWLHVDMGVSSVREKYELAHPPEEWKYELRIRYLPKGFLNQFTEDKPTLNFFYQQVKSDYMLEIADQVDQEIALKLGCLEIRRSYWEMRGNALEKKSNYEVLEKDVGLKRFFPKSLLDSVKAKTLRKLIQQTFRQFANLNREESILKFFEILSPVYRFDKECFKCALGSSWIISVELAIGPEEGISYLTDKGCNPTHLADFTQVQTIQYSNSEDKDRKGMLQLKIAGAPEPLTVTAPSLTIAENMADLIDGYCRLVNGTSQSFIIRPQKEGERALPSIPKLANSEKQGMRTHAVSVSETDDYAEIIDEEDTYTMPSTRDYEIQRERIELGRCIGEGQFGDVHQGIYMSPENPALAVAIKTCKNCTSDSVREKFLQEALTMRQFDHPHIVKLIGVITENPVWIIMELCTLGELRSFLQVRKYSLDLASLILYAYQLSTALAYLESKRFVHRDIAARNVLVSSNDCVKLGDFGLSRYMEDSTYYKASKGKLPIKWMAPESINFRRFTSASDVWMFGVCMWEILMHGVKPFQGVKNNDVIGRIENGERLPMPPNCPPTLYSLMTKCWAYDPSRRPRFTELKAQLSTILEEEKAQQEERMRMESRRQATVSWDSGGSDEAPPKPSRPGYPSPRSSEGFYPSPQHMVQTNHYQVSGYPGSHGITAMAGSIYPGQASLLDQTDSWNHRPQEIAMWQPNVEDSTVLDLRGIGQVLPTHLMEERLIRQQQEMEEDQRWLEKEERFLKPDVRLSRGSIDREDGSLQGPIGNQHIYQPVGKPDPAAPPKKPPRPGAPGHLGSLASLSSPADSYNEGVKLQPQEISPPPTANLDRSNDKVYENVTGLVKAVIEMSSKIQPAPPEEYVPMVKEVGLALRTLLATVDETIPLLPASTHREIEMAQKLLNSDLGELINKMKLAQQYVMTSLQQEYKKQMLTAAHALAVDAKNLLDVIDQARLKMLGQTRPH
Observed: enzyme activity
Action: inhibitor
Concentration: 0.5 µM
Reference: control
For CNc1cc2c(Nc3cccc(Br)c3)ncnc2cn1, the remaining activity was 90.2%.
With COc1cc2c(Nc3ccc(Br)cc3F)ncnc2cc1OCC1CCN(C)CC1 the remaining activity was 100%.
With CC(C)N(CCC(=O)c1ccc2ccccc2c1)Cc1ccccc1 the remaining activity was 96.3%.
The remaining activity of N#CC(c1ccnc(NCCc2cccnc2)n1)c1nc2ccccc2s1 (stereo not drawn) is reported as 93%.
FC(F)(F)c1ccc(/C=C/c2nc(COc3ccc(CCCCn4ccnn4)cc3)co2)cc1 gave a remaining activity of 101%.
For COc1cc2c(N3CCN(C(=O)Nc4ccc(OC(C)C)cc4)CC3)ncnc2cc1OCCCN1CCCCC1, the remaining activity was 101%.

For quick reference, copied from above (study 2):
The remaining compound of CC1CCc2c(sc3ncnc(NC(c4nnc5n4CCC5)C(C)C)c23)C1 (stereo not drawn) is reported as 3.95%.
Fc1ccc(CNc2c(-c3ccccn3)nc3cnccn23)cc1 gave a remaining compound of 0.0512%.
With Nc1nn(Cc2ccc(F)cc2Cl)cc1Cl the remaining compound was 58.9%.
For Cn1nc(Br)nc1N1CCC(O)CC1, the remaining compound was 81.2%.
With O=C(Nc1cc2ccc(O)cc2s1)Nc1ccc(Br)cc1F the remaining compound was 36.2%.
